{"data": "Literature values, collected from citations in different studies", "note": "Several values in a cell are separate wells, animals, samples, runs or records. Numbers after ± are the reported error."}
{"Compound": "N=C(NO)NN=Cc1nccc2ccccc12", "cell line": "L1210", "IC50": "3300 nM"}
{"Compound": "Oc1cccc(-c2cccc(O)n2)n1.[Cl-].[Cl-].[Ru+2].c1cnc2c(c1)c1c(c3cccnc32)OCCO1.c1cnc2c(c1)c1c(c3cccnc32)OCCO1", "cell line": "HeLa", "assay": "cell viability", "conditions": "with: blue light 450 nm, 1 h", "IC50": "120000 nM"}
{"Compound": "CC(=O)OC1C=CC(=O)C2(CO)C3CCC4(C)C(C(C)C5CC(C)=C(C)C(=O)O5)CCC4C3CC3OC132 (centres unmarked)", "cell line": "Hs-578T", "assay": "cell growth", "IC50": "430 nM"}
{"Compound": "CC(C)(O)c1ncc([S@](N)(=O)=NC(=O)Nc2c3c(cc4c2CCC4)CCC3)s1", "cell line": "human PBMC, monocytes, macrophages", "assay": "IL-1β release", "conditions": "free concentration, range, with: LPS", "IC50": "1 to 2.9 nM"}
{"Compound": "[Cl-].[Cl-].[Ru+2].c1ccc(-c2ccccn2)nc1.c1ccc(-c2ccccn2)nc1.c1cnc2c(c1)ccc1cccnc12", "cell line": "Caco-2", "conditions": "light irradiation", "IC50": "> 100000 nM"}
{"Compound": "COc1cc(/C=N/N2C(=O)c3ccccc3NC2c2cc(OC)c(O)c(OC)c2)cc(OC)c1O (centres unmarked)", "cell line": "human renal tubule TH-1", "assay": "cytotoxicity", "IC50": "374000 nM"}
{"Compound": "CCC1=C(O)c2c(oc(-c3ccc(OC)c4ccccc34)cc2=O)C(CC)(CC)C1=O", "cell line": "HCT-8", "assay": "cell growth, SRB", "IC50": "3350 nM"}
{"Compound": "CC1=C2[O][Ru-]([Cl])[O+]=C2C=CN1CCCCCCCCCCCCN1C=CC2=[O+][Ru-]([Cl])[O]C2=C1C.Cc1ccc(C(C)C)cc1.Cc1ccc(C(C)C)cc1", "cell line": "SW480", "assay": "MTT", "IC50": "290 ± 50 nM"}
{"Compound": "CN(C)CCC[Se]c1cnc(-c2cccc(Cn3nc(-c4cccc(C#N)c4)ccc3=O)c2)nc1", "cell line": "MHCC97H", "IC50": "10 nM"}
{"Compound": "COc1ccccc1NC(=O)N[C@H](C(=O)Nc1ccc(C(=O)NO)cc1)c1ccccc1", "cell line": "U-937", "assay": "cell viability, MTT", "IC50": "1300 nM and 1310 nM"}
{"Compound": "CC(C)(C)C1=CC(=NNC(=O)c2ccncc2)C=C(C(C)(C)C)C1=O", "cell line": "HC04", "assay": "cell viability", "IC50": "28000 nM"}
{"Compound": "FC(F)(F)c1ccc2nc3c4cccnc4c4ncccc4c3nc2c1.[Cl-].[Cl-].[Ru+2].c1ccncc1.c1ccncc1.c1ccncc1.c1ccncc1", "cell line": "L-O2", "assay": "phototoxicity", "conditions": "light irradiation", "IC50": "29300 ± 1500 nM"}
{"Compound": "CC[C@H](C)[C@@H]1NC(=O)[C@H](Cc2c[nH]c3ccccc23)NC(=O)[C@H](C)NC(=O)[C@H](C(C)C)NC(=O)[C@H](CC(C)C)NC(=O)[C@H](Cc2c[nH]c3ccccc23)NC1=O", "cell line": "HeLa", "IC50": "11000 nM"}
{"Compound": "O=C1OCC2=C1C(c1cccc(Br)c1)C1=C(N2)C(=O)c2ccccc2C1=O (centres unmarked)", "cell line": "HepG2 cells", "assay": "cell growth", "IC50": "< 36 nM"}
{"Compound": "CC(=O)OC1C2C3CCC(C(C)(O)C4CC(C)=C(C)C(=O)O4)C3(C)CCC2C2(C)C(=O)C=CC(O)C23OC13 (centres unmarked)", "cell line": "Lu1", "assay": "cell growth", "IC50": "3580 nM"}
{"Compound": "Cc1ccc(C(C)C)cc1.O=C(N=P(c1ccccc1)(c1ccccc1)c1ccccc1)c1ccccn1.[Cl-].[Cl][Ru+]", "cell line": "HEK-273", "assay": "cytotoxicity", "IC50": "2800 ± 200 nM"}
{"Compound": "COc1cc(/C=C/C(=O)NCCc2ccc(OC)c(OC)c2)ccc1O", "cell line": "RAW264.7", "assay": "nitric oxide production", "conditions": "24 h, with: LPS 100 ng/mL", "IC50": "> 10000 nM"}
{"Compound": "Cc1ccc(C2C3=C(COC3=O)NC3=C2C(=O)c2ccccc2C3=O)cc1 (centres unmarked)", "cell line": "HepG2 cells", "assay": "cell growth", "IC50": "2240 ± 10 nM"}
{"Compound": "CCC1=C(O)c2c(oc(-c3ccc4ccccc4c3)cc2=O)C(CC)(CC)C1=O", "cell line": "HepG2", "assay": "cell growth, SRB", "IC50": "1550 nM"}
{"Compound": "CC(=O)OCC1=C(C)CC(C(C)C2CCC3C4CC5OC56C(OC(C)=O)C=CC(=O)C6(CO)C4CCC23C)OC1=O (centres unmarked)", "cell line": "Hs-578T", "assay": "cell growth", "IC50": "460 nM"}
{"note": "A few entries again:"}
{"Compound": "CC(=O)OC1C=CC(=O)C2(CO)C3CCC4(C)C(C(C)C5CC(C)=C(C)C(=O)O5)CCC4C3CC3OC132 (centres unmarked)", "cell line": "Hs-578T", "assay": "cell growth", "IC50": "430 nM"}
{"Compound": "CC(C)(O)c1ncc([S@](N)(=O)=NC(=O)Nc2c3c(cc4c2CCC4)CCC3)s1", "cell line": "human PBMC, monocytes, macrophages", "assay": "IL-1β release", "conditions": "free concentration, range, with: LPS", "IC50": "1 to 2.9 nM"}
{"Compound": "[Cl-].[Cl-].[Ru+2].c1ccc(-c2ccccn2)nc1.c1ccc(-c2ccccn2)nc1.c1cnc2c(c1)ccc1cccnc12", "cell line": "Caco-2", "conditions": "light irradiation", "IC50": "> 100000 nM"}
